Measured values pooled from the literature.
Each line is one published result; not all experiments were run side by side. ± marks the error that the study gave.

SMILES	cell line	assay	test system	conditions	how to read	endpoint	result
O=Cc1c(O)ccc2ccccc12	HUVEC	RNA sequencing, measured: SESN2	–	75 µM, 24 h	reference: DMSO	log2 fold change	2.81
C=Cc1cc2c(cc1OC)C1(C)Cc3cnc(C)nc3C(C)(C)C1CC2 (stereo not drawn)	TM3	ELISA	culture medium	20 µM, 24 h	–	testosterone level	227 ± 3 µmol/L
COc1ccc([C@@H]2CC(=O)c3c(O)cc(O[C@@H]4O[C@H](CO[C@@H]5O[C@@H](C)[C@H](O)[C@@H](O)[C@H]5O)[C@@H](O[C@H]5O[C@H](CO)[C@@H](O)[C@H](O)[C@H]5O)[C@H](O)[C@H]4O)cc3O2)cc1O	A549	Matrigel Transwell invasion	–	50 µg/mL, 24 h	–	invasion	36.4 ± 6.96%
CC(=O)OC[C@H]1O[C@@H](Sc2sc(C(=O)c3ccc(C)cc3)c(N)c2-c2nc3ccccc3s2)[C@H](OC(C)=O)[C@@H](OC(C)=O)[C@@H]1OC(C)=O	SF-268	SRB	–	10 µM, 48 h	reference: untreated	growth	71%
Cc1ccc(C(C)C)cc1.O=C(N=P(c1ccccc1)(c1ccccc1)c1ccccc1)c1ccccn1.[Cl-].[Cl][Ru+]	HCC1806	cell growth or viability, resazurin	–	–	–	IC20	2.5 µM
Cc1[nH]nc2c1N=C(c1ccccc1Cl)c1cnc(N3CCOCC3)cc1N2	4T1 and human TNBC cells	RT-qPCR, measured: CXCL10 and CXCL11	–	concentration not given, 24 h	–	mRNA level	increased
CCCCN1C(=O)c2cccc3c(NCCCCCCCCN4CCOCC4)ccc(c23)C1=O	BHK-21	confocal microscopy, measured: endoplasmic reticulum colocalisation	–	0.2 µM, added: 0.3 µM ER-Tracker Red	–	Pearson's correlation coefficient	0.78 ± 0.03
CCCCCCCCC1(CCCCCCCC)c2cc(-c3cc4[n+]5c(c3)-c3cccc[n+]3[Ir-3]536([c]5ccccc5-c5cc(-c7ccccc7)cc([n+]53)-c3cccc[c]36)[n+]3ccccc3-4)ccc2-c2ccc(-c3cc4[n+]5c(c3)-c3cccc[n+]3[Ir-3]536([c]5ccccc5-c5cc(-c7ccccc7)cc([n+]53)-c3cccc[c]36)[n+]3ccccc3-4)cc21.F[P-](F)(F)(F)(F)F.F[P-](F)(F)(F)(F)F	SK-MEL-28	–	–	visible light 100 J/cm2	reference: dark EC50 over visible-light EC50	phototherapeutic index	66
Cn1cc(-c2cc(N3CCCCS3(=O)=O)ccc2N[C@H]2CC[C@H](C)CC2)c2cc[nH]c2c1=O (stereo in doubt)	light2 cells transfected with GLI1-FLAG	Western blot, measured: exogenous GLI1-FLAG	–	concentration not given	–	protein level	no effect
CC(C)(C)n1cc(CN(Cc2cn(CC(=O)O)nn2)Cc2cn(C(C)(C)C)nn2)nn1	OVCAR-5 HPG-labelled	CuAAC reaction on cells, LC-ESI-MS/MS	cytosolic proteins	added: NEM 100 µM for 10 min pretreatment	–	yield	4%
CC(C)c1cccc(C(C)C)c1-n1c(Cl)c(Cl)n(-c2c(C(C)C)cccc2C(C)C)c1=[Se].[Cl][Ag]	LoVo-OXP colon cancer cells	MTT	–	–	reference: LoVo-OXP over LoVo IC50	resistance factor	0.4
COc1ccc2c(c1)/C(=N\Nc1nnc3n1N=C(c1ccccc1)CS3)C(=O)N2	SF-268	cell growth or viability, SRB	–	10 µM	–	inhibition	12%
COc1cc(CNC(=O)C[C@H](C)CCC=C(C)C)ccc1OCc1cn(-c2ccc(C#N)cc2)nn1	M14 melanoma cells	SRB	–	10 µM, 48 h	–	growth percent	88.2%
COc1cc(COC(=O)C2C(C=O)=Cc3cc4c(cc3C2c2cc(OC)c(OC)c(OC)c2)OCO4)cc(OC)c1OC (stereo not drawn)	uninfected mouse splenocytes	–	–	–	reference: splenocyte CC50 over amastigote EC50	selectivity index	5
C#CCN(CC(=O)O[C@H]1[C@H](C)O[C@@H](O[C@H]2[C@H](N(C)C)[C@@H](O)[C@H](O[C@H]3[C@@H](CC=O)C[C@@H](C)[C@@H](O[C@H]4CC[C@H](N(C)C)[C@@H](C)O4)/C=C/C=C/C[C@@H](C)OC(=O)C[C@@H](O)[C@@H]3OC)O[C@@H]2C)C[C@@]1(C)O)C(=O)c1ccc(C(F)(F)F)cc1	HGC-27	PI flow cytometry	–	0.90 µM, 48 h	–	S phase cells	37.8%
Cc1nn(-c2ccc(S(=O)(=O)N[C@@H](CO)CC(C)C)cc2)c2nn3nnnc3nc12	HT-29	PI/Hoechst staining	–	1 µM, 24 h	–	apoptotic cells	32 ± 4.24%
Cc1noc(NS(=O)(=O)c2ccc(NC(=O)c3cc(-c4ccc5ccccc5c4)nc4ccccc34)cc2)c1C	mouse spleen cells	cell proliferation, MTT	–	100 µM, 72 h, added: concanavalin A 5 µg/mL	–	inhibition	46.7 ± 5.39%
COc1ccc(NC(=O)COc2ccc(/C=C/C(C)=N/O)cc2OC)cc1	SH-SY5Y	flow cytometry	–	10 µM, added: amyloid-β 10 µM	–	cells expressing IL-6	26.7%
N[C@@H](CCC(=O)N[C@@H](CS[Se]Cc1ccc(-c2cc(C(F)(F)F)nn2-c2ccc(S(N)(=O)=O)cc2)cc1)C(=O)NCC(=O)O)C(=O)O	melanoma cells	MTS	–	12.5 µM	reference: DMSO vehicle	decrease in viability	40 to 60%
CC(=O)N[C@@H](CC(C)C)C(=O)N[C@@H](CCC(=O)O)C(=O)N[C@@H](CO)C(=O)N[C@@H](CC(=O)O)C(=O)CCl	THP-1 macrophages	apoptosis, immunoblot	–	12.5 to 100 µM, added: staurosporine	–	PARP cleavage	no effect
CN1CCN(c2ccc(Nc3ncc(Cl)c(Nc4ccccc4NS(=O)(=O)C4CC4)n3)cc2)CC1	Ba/F3 EGFR C797S	western blot	–	concentration not given, 24 h	–	cleaved caspase-3 level	increased

SMILES	cell line	assay	test system	conditions	how to read	endpoint	result
C[C@@H](O)[C@H](NC(=O)[C@@H]1CSSC[C@H](NC(=O)[C@@H](Cc2ccccc2)NC(=O)CN2CCN(CC(=O)O)CCN(CC(=O)O)CCN(CC(=O)O)CC2)C(=O)N[C@@H](Cc2ccc(O)cc2)C(=O)N[C@H](Cc2c[nH]c3ccccc23)C(=O)N[C@@H](CCCCN)C(=O)N[C@@H]([C@@H](C)O)C(=O)N1)C(=O)O	AR-42J	radioligand uptake	–	concentration not given, 2 h	–	internalized fraction of cell activity	53.1 ± 1.83%
COc1cc(CNC(=O)C[C@H](C)CCC=C(C)C)ccc1OCc1cn(-c2ccccc2[N+](=O)[O-])nn1	SNB-19 CNS cancer cells	SRB	–	10 µM, 48 h	–	growth percent	66.4%
CO[C@@H]1[C@H](O)[C@@H](COP(=O)(O)OP(=O)([S-])OP(=O)(S)OC[C@H]2O[C@@H](n3cnc4c(=O)[nH]c(N)nc43)[C@H](O)[C@@H]2O)O[C@H]1n1c[n+](C)c2c(O)nc(N)nc21 (mixture of isomers)	human immature dendritic cells	reporter gene	–	72 h, cap on electroporated luciferase mRNA	reference: beta-S-ARCA D1 capped mRNA	relative total luciferase expression	1.6 ± 0.01
COc1cc(CNC(=O)C[C@H](C)CCC=C(C)C)ccc1OCc1cn(-c2ccc([N+](=O)[O-])cc2)nn1	BT-549 breast cancer cells	SRB	–	10 µM, 48 h	–	growth percent	72.6%
C=C(CC)C(=O)c1ccc(OCC(=O)NCCNC(=O)COc2ccc(C(=O)C(=C)CC)c(Cl)c2Cl)c(Cl)c1Cl	CoC1	cell growth, CCK-8	–	72 h	–	IC10	~0.4 µM
COc1cc(CNC(=O)C[C@H](C)CCC=C(C)C)ccc1OCc1cn(-c2ccccc2)nn1	SNB-19 CNS cancer cells	SRB	–	10 µM, 48 h	–	growth percent	74.4%
Cn1c2cc([S+](C)[O-])sc2c2cnn(Cc3cccc(N)c3)c(=O)c21 (stereo not drawn)	H1299	LC-MS/MS	–	25 µM, 36 h	–	intracellular lactate	decreased
COc1ccc([C@@H]2CC(=O)c3c(O)cc(O[C@@H]4O[C@H](CO[C@@H]5O[C@@H](C)[C@H](O)[C@@H](O)[C@H]5O)[C@@H](O)[C@H](O)[C@H]4O)cc3O2)cc1O	A549	Matrigel Transwell invasion	–	50 µg/mL, 48 h	–	invasion	42.8 ± 6.83%
Cc1nn(C)c2nnc(-c3ccccc3)c(Cl)c12	D6	RT-qPCR, measured: CLRN1 N48K mRNA	–	16.8 µM, 24 h, added: bortezomib 50 nM	–	mRNA level	no effect
Clc1ccc(NN=C(c2ccccc2)c2ccccn2)nc1	HCC4017	chromatin immunoprecipitation, measured: c10orf10 promoter H3K4me3	–	0.5 µM, 24 h	reference: untreated	H3K4me3 level	increased
Cc1cccc(C)c1OCC(=O)N[C@@H](Cc1ccccc1)[C@H](C[C@H](Cc1ccccc1)NC(=O)[C@H](C(C)C)N1CCCNC1=O)OC(=O)[C@H](CC(C)C)NC(=O)[C@@H](N)Cc1cnc[nH]1	MDCK-MDR1, MDCK-MRP2 and Caco-2 cells	transport, inhibitor	–	25 µM, unlabelled GlySar 10 mM, added: [3H]-GlySar	–	inhibition	~35%
COc1cc(CNC(=O)C[C@H](C)CCC=C(C)C)ccc1OCc1cn(-c2ccc(F)cc2)nn1	OVCAR-5 ovarian cancer cells	SRB	–	10 µM, 48 h	–	growth percent	102%
O=C(N/N=C/c1ccccn1)c1cc(-c2ccc(Cl)cc2)nc2ccccc12	LDR	silenced GFP reporter derepression, microscopy	–	overnight	–	EC50	10 µM
CC(C)=CCC1=C([O-])C(=O)c2ccccc2C1=O.CC(C)=CCC1=C([O-])C(=O)c2ccccc2C1=O.[Cu+2].c1ccc(-c2ccnc3c2ccc2c(-c4ccccc4)ccnc23)cc1	MRC5 and A2780	MTT	–	24 h	reference: IC50 MRC5 over IC50 A2780	selectivity index	6
COc1cc(CNC(=O)C[C@H](C)CCC=C(C)C)ccc1OCc1cn(-c2ccc(Cl)cc2Cl)nn1	OVCAR-5 ovarian cancer cells	SRB	–	10 µM, 48 h	–	growth percent	91.7%
Cc1ccc(C(C)C)c(OCc2ccc(C(=O)N/N=C/c3cccc(O)c3O)cc2)c1	LDR	silenced GFP reporter derepression, microscopy	–	overnight	reference: sodium butyrate	Emax	23%
CO[C@H]1N(OC)c2ccccc2[C@@]12CN=C(Nc1cc(C(F)(F)F)cc(C(F)(F)F)c1)S2 (relative stereo)	HCT-116	PI flow cytometry	–	40 µM, 24 h	–	G0/G1 phase cells	62.97 ± 0.37%
Clc1cccc(Nc2nc(NCc3ccccc3)c3ccccc3n2)c1	SW-403	cell growth or viability	–	24 h	–	GI50	5.4 µM
COc1cc(CNC(=O)C[C@H](C)CCC=C(C)C)ccc1OCc1cn(-c2ccc(Br)cc2)nn1	OVCAR-5 ovarian cancer cells	SRB	–	10 µM, 48 h	–	growth percent	105%
COc1cccc2c1C(=O)c1c(O)c3c(c(O)c1C2=O)C[C@@](O)(C(=O)CO)C[C@@H]3O[C@H]1C[C@H](N)[C@H](O)[C@H](C)O1	Huntington disease fibroblasts	–	–	concentration not given, 4 h	–	ROS production	increased
COc1ccc(CC2COC(=O)C2Cc2ccc3c(c2)OCO3)cc1OC (mixture of isomers)	A2780	western blot, measured: Bax	–	IC50, 48 h	reference: 0 h	protein level	increased

Excerpt of the above:
SMILES	cell line	assay	test system	conditions	how to read	endpoint	result
COc1cc(CNC(=O)C[C@H](C)CCC=C(C)C)ccc1OCc1cn(-c2ccc(Cl)cc2Cl)nn1	OVCAR-5 ovarian cancer cells	SRB	–	10 µM, 48 h	–	growth percent	91.7%
Cc1ccc(C(C)C)c(OCc2ccc(C(=O)N/N=C/c3cccc(O)c3O)cc2)c1	LDR	silenced GFP reporter derepression, microscopy	–	overnight	reference: sodium butyrate	Emax	23%
